Measurements gathered from unrelated publications.
Lines come from different studies, so protocols differ. ± gives the spread as reported.

Structure (SMILES)	assay	test system	conditions	half-life [min]
COc1ccc([C@@H](O)c2cc(-c3ncnc4cc(N5CCOCC5)ccc34)c(F)cc2Cl)nn1		human, plasma	oral, 150 mg once daily, single dose, geometric mean	394
O=C(COc1ccc(Cl)cc1)NC12CC(c3nnc([C@H]4C[C@@H](OC(F)(F)F)C4)o3)(C1)C2		healthy human volunteers fasted, plasma	oral, 45 mg single dose, arithmetic mean	1860
Cc1cc(C)c(CNC(=O)c2cc(Cl)c3c(c2C)O[C@@](C)([C@H]2CC[C@H](N(C)C)CC2)O3)c(=O)[nH]1	mean	healthy male humans, plasma	oral, 25 mg, day 12, together with: fluconazole	1150
O=C(O)C[C@H](O)C[C@H](O)/C=C/c1c(C2CC2)nc2ccccc2c1-c1ccc(F)cc1		OATP1B1/1B3 humanized mouse, plasma	oral, 5 mg/kg, together with: silymarin 500 mg/kg oral	174
Cc1nc(-c2ccc(OCC(C)C)c(C#N)c2)sc1C(=O)O		human	oral, 10 mg once daily, together with: verinurad 0 mg	461
COc1ncc(-c2nc3c(n2C(C)C)[C@H](c2ccc(Cl)cc2)N(c2cc(Cl)cn(C)c2=O)C3=O)c(OC)n1	LC-MS/MS, noncompartmental	human, plasma	oral, 15 mg, low-dose, median	360
CCN1CCN(Cc2ccc(Nc3ncc(F)c(-c4cc(F)c5nc6n(c5c4)[C@H](C)CCC6)n3)nc2)CC1		human, plasma	500 mg single dose, mean	2530
O=C(O)c1cc(/N=N/c2ccc(S(=O)(=O)Nc3ccccn3)cc2)ccc1O	LC-MS	human, plasma	oral, 1000 mg, day 1	666
C[C@@H](Nc1cc(F)cc(F)c1)c1cc(C(=O)N(C)C)cc2c(=O)cc(N3CCOCC3)oc12		human	oral, 180 mg twice daily, day 1, 5:2 schedule, single dose, geometric mean	323
OC[C@H]1O[C@@H](c2ccc(Cl)c(Cc3ccc(O[C@H]4CCOC4)cc3)c2)[C@H](O)[C@@H](O)[C@@H]1O		healthy humans, plasma	oral, 25 mg, alone	427 ± 41.4
CC(C)(C)[C@@H]1NC(=O)O[C@@H]2CCC[C@H]2OC/C=C/C(F)(F)c2nc3ccccc3nc2O[C@@H]2C[C@@H](C(=O)N[C@]3(C(=O)NS(=O)(=O)C4(C)CC4)C[C@H]3C(F)F)N(C2)C1=O		healthy human subjects, plasma	oral, single dose alone	349
C=CC(=O)N(C)CCOc1c(N)ncnc1-c1cc(F)cc(NC(=O)c2ccc(C3CC3)cc2F)c1C		human, whole blood	oral, 600 mg, single ascending dose, median	846
C[C@H](Oc1ccc(Br)cc1-c1ccon1)C(=O)O		healthy male humans, plasma	oral, 400 mg twice daily, day 1	222
Nc1c2c(cc3c1CCC3)CCC2		human, plasma	oral, 450 mg of GDC-2394, single ascending dose	2150
C#C[C@]1(COP(=O)(O)O)O[C@@H](n2cnc3c(N)nc(F)nc32)C[C@@H]1O	refers to: islatravir triphosphate	human, PBMC	oral, 100 mg single dose	7380
O=C(O)CCC(=O)O.[2H]C([2H])([2H])Oc1cc(C)c2[nH]ccc2c1CN1CC[C@@H](C2CC2)C[C@H]1c1ccc(C(=O)O)cc1		human, fasted, plasma	oral, 200 mg, single ascending dose	1860
C#C[C@]1(COP(=O)(O)OP(=O)(O)O)O[C@@H](n2cnc3c(N)nc(F)nc32)C[C@@H]1O	refers to: islatravir triphosphate	human, PBMC	oral, 30 mg single dose	6300
C[C@H](O)c1cc(C(=O)N[C@@H](C)Cn2ccc(-c3ccc(C#N)c(Cl)c3)n2)n[nH]1		human, fasted, plasma	oral, 300 mg darolutamide tablet, geometric mean	984
CCS(=O)(=O)Nc1ccc(Oc2ccc(F)cc2F)c(-c2cn(C)c(=O)c3[nH]ccc23)c1		human, plasma	oral, 1.5 mg, cycle 1 day 8, harmonic mean	894 ± 426
Cc1cc(C)c(CNC(=O)c2cc(Cl)c3c(c2C)O[C@@](C)([C@H]2CC[C@H](N(C)C)CC2)O3)c(=O)[nH]1	refers to: total radioactivity	human male, whole blood	oral, 200 mg	708
Nc1ccn([C@@H]2O[C@H](CO)[C@@H](O)C2(F)F)c(=O)n1	HPLC-UV	human, plasma	intravenous, 800 mg/m^2, median, before paricalcitol	171
CCN(CC)Cc1cc(Nc2ccnc3cc(Cl)ccc23)ccc1O		human, both sexes, plasma	oral, dose not given, non-fixed combination	142
Cc1cc(/C=C/C#N)cc(C)c1Nc1ccnc(Nc2ccc(C#N)cc2)n1		human, haemodialysis patients, plasma	oral, fixed-dose combination	1730
CN(C)N=Nc1[nH]cnc1C(N)=O		human patients, plasma	intravenous, 1000 mg/m^2 over 1 h, cycle 1 day 1, given alone	153

Structure (SMILES)	assay	test system	conditions	half-life [min]
COc1cc(C(=O)NC2CCN(C)CC2)c(F)cc1Nc1ncc(C(F)(F)F)c(Oc2cccc3c2C(=O)N(C)C3)n1		human patients, plasma	oral, 100 mg single dose, geometric mean	1330
Cn1cncc1-c1c(F)cncc1NC(=O)c1c(N)nn2cc(F)cnc12		human patients, plasma	oral, 90 mg	102
CO[C@H]1C[C@@H]2CC[C@@H](C)[C@@](O)(O2)C(=O)C(=O)N2CCCC[C@H]2C(=O)O[C@H]([C@H](C)C[C@@H]2CC[C@@H](OC(=O)NCCOCCOCCOCCOCCOCCOCCOCCOCCC(=O)N3CCc4cc(Cn5nc(-c6ccc7oc(N)nc7c6)c6c(N)ncnc65)ccc4C3)[C@H](OC)C2)C[C@@H](O)[C@H](C)/C=C(\C)[C@@H](O)[C@@H](OC)C(=O)[C@H](C)C[C@H](C)/C=C/C=C/C=C/1C		human, plasma	intravenous, 6 mg, cycle 1 day 1, arithmetic mean	226
CC#CC(=O)N1CC[C@@H](n2c(=O)n(-c3ccc(Oc4ccccc4)cc3)c3c(N)ncnc32)C1		human, fasting, plasma	oral, 480 mg once daily, cycle 1 day 28	~234
CCN1CCN(Cc2ccc(Nc3ncc(F)c(-c4cc(F)c5nc(C)n(C(C)C)c5c4)n3)nc2)CC1		healthy human, fasted, plasma	oral, 200 mg, 2 x 100 mg capsules	1520
Cc1nc(Nc2ncc(C(=O)Nc3c(C)cccc3Cl)s2)cc(N2CCN(CCO)CC2)n1		human patients	oral, 85 mg/m^2, day 42	300 ± 48
CCCCCCCOc1ccc(CCC(N)(CO)CO)cc1C(F)(F)F.Cl		healthy human males, plasma	oral, 0.5 mg, day 21	23200
Cn1cncc1[C@@](N)(c1ccc(Cl)cc1)c1ccc2c(c1)c(-c1cccc(Cl)c1)cc(=O)n2C	non-compartmental analysis	human, plasma	oral, 300 mg/m^2, median, initial cohort, first cycle dose	244
CC1(COc2ccc3c(c2)ncn3-c2ccc3cccc(N4CCC(N)CC4)c3n2)COC1		human patients, recurrent/progressive HGG or DIPG, serum	oral, 130 mg/m^2, day 1, median	546
N#CCNC(=O)c1ccc(-c2ccnc(Nc3ccc(N4CCOCC4)cc3)n2)cc1		healthy human volunteers, plasma	oral, 100 mg once daily, day 7, fed, given alone	328
Cc1cc(OCCOCCC(F)(F)P(=O)(O)O)ccc1CCc1cnc2c(N)nc3cc(CCC(=O)O)ccc3c2c1		human, serum	intratumoral, 600 µg every 2 weeks, cycle 1 day 1	1820
C#Cc1cccc(Nc2ncnc3cc(OCCOC)c(OCCOC)cc23)c1		human patients, plasma	oral	~1200
COC(=O)C(Cc1cccc(OC)c1I)NC(=O)CNCc1ccccc1 (stereo not drawn)		human	1 µM	> 120
NC[C@@]1(CC(=O)O)[C@@H]2CC[C@H]3C[C@@H]2[C@@H]1C3		human, severe renal impairment, plasma	oral, 20 mg single dose, geometric mean	676
CN(C)C(=O)c1cc2cnc(Nc3ccc(N4CCNCC4)cn3)nc2n1C1CCCC1	LC-MS/MS	human, expansion cohort, plasma	oral, 800 mg, day 14, together with: gemcitabine 1000 mg/m^2	1480
CC(C)[C@H](N)C(=O)NCCCS(=O)(=O)O		human, plasma	oral, 256.5 mg once daily days 8-14, day 14, fasted, capsule	53.6
N#Cc1cc(NC(=O)[C@H]2c3ccccc3C(=O)N(CC(F)(F)F)[C@@H]2c2cccnc2)ccc1F		human, plasma	oral, 150 mg, median	1040
CC(C)NC(=O)COc1cccc(-c2nc(Nc3ccc4[nH]ncc4c3)c3ccccc3n2)c1		human male, plasma	oral, 200 mg once daily, day 13, fed, geometric mean, together with: rosuvastatin	540
CO[C@@H]1[C@H](OC(=O)N2CC(CCN3CCOCC3)C2)CC[C@]2(CO2)[C@H]1[C@@]1(C)O[C@@H]1CC=C(C)C		humans, plasma	subcutaneous, 1.8 mg twice weekly, first dose	49.8 ± 15.6
C[C@@H](Oc1ccc(S(C)(=O)=O)cc1C(=O)N1C[C@@H]2C[C@]2(c2cc(C(F)(F)F)on2)C1)C(F)(F)F		elderly humans, plasma	oral, 50 mg once daily, single dose, geometric mean	2630
Fc1ccc([C@@H]2CCNC[C@H]2COc2ccc3c(c2)OCO3)cc1		human, all CYP2D6 genotypes	oral, 20 mg, steady state, geometric mean	1200
CC(C)c1nc(N(C)S(C)(=O)=O)nc(-c2ccc(F)cc2)c1/C=C/[C@@H](O)C[C@@H](O)CC(=O)O		healthy human subjects, plasma	oral, 10 mg, arithmetic mean, together with: fruquintinib 5 mg	870
CC(C)(Sc1ccncc1-c1ccc(C#N)c2ccccc12)C(=O)O		human, plasma	oral, 2.5 mg once daily, together with: febuxostat 20 mg	888
NC(CO)(CO)CCc1ccc(Sc2cccc(OCc3ccccc3)c2)cc1Cl		human, whole blood	oral, 3 mg, mean, alone	6600

Some of these lines once more:
Structure (SMILES)	assay	test system	conditions	half-life [min]
COc1cc(C(=O)NC2CCN(C)CC2)c(F)cc1Nc1ncc(C(F)(F)F)c(Oc2cccc3c2C(=O)N(C)C3)n1		human patients, plasma	oral, 100 mg single dose, geometric mean	1330
Cn1cncc1-c1c(F)cncc1NC(=O)c1c(N)nn2cc(F)cnc12		human patients, plasma	oral, 90 mg	102
CO[C@H]1C[C@@H]2CC[C@@H](C)[C@@](O)(O2)C(=O)C(=O)N2CCCC[C@H]2C(=O)O[C@H]([C@H](C)C[C@@H]2CC[C@@H](OC(=O)NCCOCCOCCOCCOCCOCCOCCOCCOCCC(=O)N3CCc4cc(Cn5nc(-c6ccc7oc(N)nc7c6)c6c(N)ncnc65)ccc4C3)[C@H](OC)C2)C[C@@H](O)[C@H](C)/C=C(\C)[C@@H](O)[C@@H](OC)C(=O)[C@H](C)C[C@H](C)/C=C/C=C/C=C/1C		human, plasma	intravenous, 6 mg, cycle 1 day 1, arithmetic mean	226
CC#CC(=O)N1CC[C@@H](n2c(=O)n(-c3ccc(Oc4ccccc4)cc3)c3c(N)ncnc32)C1		human, fasting, plasma	oral, 480 mg once daily, cycle 1 day 28	~234
CCN1CCN(Cc2ccc(Nc3ncc(F)c(-c4cc(F)c5nc(C)n(C(C)C)c5c4)n3)nc2)CC1		healthy human, fasted, plasma	oral, 200 mg, 2 x 100 mg capsules	1520
Cc1nc(Nc2ncc(C(=O)Nc3c(C)cccc3Cl)s2)cc(N2CCN(CCO)CC2)n1		human patients	oral, 85 mg/m^2, day 42	300 ± 48
CCCCCCCOc1ccc(CCC(N)(CO)CO)cc1C(F)(F)F.Cl		healthy human males, plasma	oral, 0.5 mg, day 21	23200
Cn1cncc1[C@@](N)(c1ccc(Cl)cc1)c1ccc2c(c1)c(-c1cccc(Cl)c1)cc(=O)n2C	non-compartmental analysis	human, plasma	oral, 300 mg/m^2, median, initial cohort, first cycle dose	244
